Measurements pooled from the literature.
Numbered parts are unrelated; each lists some results of a single study.

Series 1 — method: RNA Bind-n-Seq; molecule type: RNA; medium: in vitro; tested at: 1 µM; setting: whole 134-nt RNA, ends assumed; together with: 150 mM KCl; relative to: input library; direction: higher = stronger binding; measurement: log2 enrichment
Target: Ras GTPase-activating protein-binding protein 1, C-terminal RGG region (G3BP1, Homo sapiens, UniProt Q13283)
UniProt Q13283, sequence (whole entry, looked up): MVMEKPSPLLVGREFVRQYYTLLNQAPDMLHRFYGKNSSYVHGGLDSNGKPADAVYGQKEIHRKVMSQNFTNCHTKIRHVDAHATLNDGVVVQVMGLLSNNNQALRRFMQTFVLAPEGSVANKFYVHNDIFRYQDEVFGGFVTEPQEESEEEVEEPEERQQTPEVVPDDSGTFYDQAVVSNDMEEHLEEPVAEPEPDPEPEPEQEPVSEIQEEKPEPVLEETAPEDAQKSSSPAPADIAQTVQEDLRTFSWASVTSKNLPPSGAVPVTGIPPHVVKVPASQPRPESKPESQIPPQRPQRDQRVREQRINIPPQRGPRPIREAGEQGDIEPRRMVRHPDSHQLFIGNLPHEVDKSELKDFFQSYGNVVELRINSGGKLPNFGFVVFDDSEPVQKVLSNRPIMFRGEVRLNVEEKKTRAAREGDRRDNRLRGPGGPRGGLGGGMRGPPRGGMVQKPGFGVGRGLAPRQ
Constant ends, left off below: GGGAGUUCUACAGUCCGACGAUC … UGGAAUUCUCGGGUGUCAAGG
UCCUGUGCUACACAUCGUAUGUACCGAAUCGGGAAAAAAGGAAAAAAGGGAAAAAAGGGAAAGUAUUAUGUUACGCCGUUCGGAUCUGCA: -1.08
GUCCUGUGCUACACAUCGUAUGUACCGAAUCGGAAAAAGGAAAAAAAGGUUUUUUUGGAAAGUAUUAUGUUACGCCGUUCGGAUCUGCAC: -1.88
UGUGCUACACAUCGUAUGUACCGAAUCGGGGAAAAAAAGGGAAAAAAAGGGAAAAAAAGGGGAAAGUAUUAUGUUACGCCGUUCGGAUCU: -0.65
CAAGUCCUGUGCUACACAUCGUAUGUACCGAAUCGGGGAGGGGAAAGGGGUGGGGAAAGUAUUAUGUUACGCCGUUCGGAUCUGCACUUC: 2.83
ACCAUGCAGGUGGGCAUCUUUGGGAAGUGGGGCAAGGGGGGGAUAGGGAGGGGGGUAACACUUUGGGAACAGGUGGCCCCAGGUCGUUUC: 1.46
UGGGAGGUGGAUUUUGUUUAUUUUUUUAGCUCAUUUCCAGGGGUGGGAAUUUUUUUUUAAUAUGUGUCAUGAAUAAAGCUGUUUUUGAAA: 3.07
GUCCUGUGCUACACAUCGUAUGUACCGAAUCGGGGAGGGGUUUUUGGGGUUUUUGGGGAAAGUAUUAUGUUACGCCGUUCGGAUCUGCAC: 1.37
UAACUUUAGAGGAGGAUCUGAUGGAUAUGGCAGUGGACGUGGAAUUGGGGAUGGCUAUAAUGGGUAUGGAGGAGGACCUGGAGGUGGCAA: -1.24
UGGGAGGUGGAUUUUGUUUAUUUUUUUAGCUCAUUUCCAGGGGUGGGAAUUUUUUUUUAAUAUGUGUCAUGAAUAAAGUUGUUUUUAAAA: 2.17
GUCCUGUGCUACACAUCGUAUGUACCGAAUCAAACCCAAACCCCCCCAAACCCCCAAAAAAGUAUUAUGUUACGCCGUUCGGAUCUGCAC: -1.02
UCCUGUGCUACACAUCGUAUGUACCGAAUCAAAUUUUUUUAAACCCCCCCAAACCCAAAAAAGUAUUAUGUUACGCCGUUCGGAUCUGCA: -0.675
CCUCAAGUCCUGUGCUACACAUCGUAUGUACCGAAUCGGGGUGGUGGGGUGGGAAAGUAUUAUGUUACGCCGUUCGGAUCUGCACUUCCA: 0.296
GUCCUGUGCUACACAUCGUAUGUACCGAAUCGGGAGGGUUUUUUUGGGAAAAAAAGGGAAAGUAUUAUGUUACGCCGUUCGGAUCUGCAC: -0.706
UUUUAAUUUGUUUGUCUCUCAUGAAACUAUGGUCUUUUAAAAAUUAAAGGUUUUUUUUUUCCCCUUAGACGAAACUGCAAAGGAAAUCCG: -1.2

Series 2 — method: RNAcompete; molecule type: RNA; medium: in vitro; tested at: 20 nM; setting: 7-mer, probes averaged, single round; relative to: mean of 7-mers; direction: higher = stronger binding; measurement: 7-mer Z-score
Target: PABPC1L2, full length, GST fusion (mouse, UniProt A0ABA7IW68)
Residues (chain): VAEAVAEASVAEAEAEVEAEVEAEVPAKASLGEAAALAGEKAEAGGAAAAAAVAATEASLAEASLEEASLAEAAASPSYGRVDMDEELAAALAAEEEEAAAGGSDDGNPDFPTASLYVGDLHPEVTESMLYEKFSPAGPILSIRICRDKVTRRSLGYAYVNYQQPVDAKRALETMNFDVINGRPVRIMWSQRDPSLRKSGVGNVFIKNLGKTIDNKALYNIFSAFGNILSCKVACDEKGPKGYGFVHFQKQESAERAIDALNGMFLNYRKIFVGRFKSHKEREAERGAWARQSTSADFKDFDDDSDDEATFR
AGCACAC: 0.0279
CAGAAGA: 0.22
CCCUAGU: -0.387
ACCCUAG: -0.0808
AAUCCUA: -0.191
GACCUCG: -0.302
CACCCCA: -0.374
GAUCUGA: -0.128
AGGGCGU: 0.267
UUUGGGG: -0.0609
GCCCUUU: -0.0772
CAGCGAA: 0.0515
GAAUUCU: -0.32
UUUCAGG: -0.282
ACAAAUC: 0.613
AUGCCGC: -0.238
AGACCUC: -0.389
GACAACC: -0.00108
GAGUUGA: -0.0989
UUGGUUG: -0.251
AACCCUG: -0.184
AGACGCU: -0.273
CUCAAAA: 3.17
AGUUAAC: -0.135

Series 3 — method: universal PBM; molecule type: double-stranded DNA, one strand shown; medium: in vitro; tested at: 600 nM; direction: higher = stronger binding; measurement: E-score
Target: Sal-like protein 4, full length isoform A (SALL4, Homo sapiens, UniProt Q9UJQ4, residues 1-1053)
UniProt Q9UJQ4, sequence (whole entry, looked up): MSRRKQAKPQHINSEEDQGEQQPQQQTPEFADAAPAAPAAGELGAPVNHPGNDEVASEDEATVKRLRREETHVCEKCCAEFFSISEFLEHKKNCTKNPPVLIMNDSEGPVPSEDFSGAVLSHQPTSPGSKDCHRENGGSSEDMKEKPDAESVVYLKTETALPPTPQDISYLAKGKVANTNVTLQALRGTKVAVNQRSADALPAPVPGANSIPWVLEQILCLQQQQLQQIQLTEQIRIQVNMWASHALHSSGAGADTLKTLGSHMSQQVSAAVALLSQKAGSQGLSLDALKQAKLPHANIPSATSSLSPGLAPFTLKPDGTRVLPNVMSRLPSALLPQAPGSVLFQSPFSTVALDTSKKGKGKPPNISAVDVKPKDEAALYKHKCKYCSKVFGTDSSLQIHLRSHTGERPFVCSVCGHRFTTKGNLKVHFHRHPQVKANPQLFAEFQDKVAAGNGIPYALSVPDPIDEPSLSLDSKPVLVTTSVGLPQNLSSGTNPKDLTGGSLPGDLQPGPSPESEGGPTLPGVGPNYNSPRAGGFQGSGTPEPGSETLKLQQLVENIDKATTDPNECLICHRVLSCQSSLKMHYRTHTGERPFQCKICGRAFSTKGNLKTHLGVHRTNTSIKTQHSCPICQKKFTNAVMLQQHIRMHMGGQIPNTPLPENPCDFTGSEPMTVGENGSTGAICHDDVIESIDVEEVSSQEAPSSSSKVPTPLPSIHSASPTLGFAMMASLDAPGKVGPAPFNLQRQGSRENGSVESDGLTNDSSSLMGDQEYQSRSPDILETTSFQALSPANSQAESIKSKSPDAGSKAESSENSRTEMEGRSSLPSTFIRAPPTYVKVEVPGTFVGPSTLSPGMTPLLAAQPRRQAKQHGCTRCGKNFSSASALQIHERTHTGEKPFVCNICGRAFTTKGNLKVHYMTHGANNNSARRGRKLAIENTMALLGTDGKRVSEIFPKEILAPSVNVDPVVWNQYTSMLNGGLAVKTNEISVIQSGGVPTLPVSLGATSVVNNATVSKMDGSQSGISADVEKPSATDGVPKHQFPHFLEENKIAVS
Setting: 8-mer, flanks averaged, mean of replicates
AGTGAGTA: 0.107
AGGAGCTA: -0.132
CCCCGTCG: -0.401
ACTGAGGG: -0.195
AGGTCATG: -0.088
AATTGTTA: 0.34
CTGGCACA: -0.0941
GCTAATCC: -0.0551
ACTGGCAT: -0.118
AACTAGTA: 0.212
CACTCGAA: 0.042
GCAGATCC: -0.105
AGATGAGC: 0.064
GCCTATGA: 0.0761
ATTCTTTC: 0.157
ACTCTCCC: -0.0635
AGGGGATG: -0.14
ATACGCCA: 0.0408
GGCGGACA: -0.276
CTCCGTCC: -0.28
ACAAATGA: 0.26
TCCCTACA: 0.155
GCGCGGAA: -0.297
CTCCGAGC: -0.169

Series 4 — target: UBE2N UBC core domain (UniProt P61088); method: yeast two-hybrid; medium: yeast; setting: mostly zero background; relative to: not given; direction: higher = stronger interaction; measurement: lacZ reporter activity
UniProt P61088, sequence (whole entry, looked up): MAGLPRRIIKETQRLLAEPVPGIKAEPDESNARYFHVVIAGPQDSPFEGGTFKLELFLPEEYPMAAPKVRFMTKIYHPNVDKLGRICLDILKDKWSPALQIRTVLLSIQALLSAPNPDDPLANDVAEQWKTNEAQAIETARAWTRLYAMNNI
B1: TRIM2 RING domain (UniProt Q9C040); chain VRQIDKQFLICSICLERYKNPKVLPCLHTFCERCLQNYIPAHSLTLSCPVCRQTSILPEKGV
B2: RNF11 RING domain (UniProt Q9Y3C5); chain RDGSEKKIRECVICMMDFVYGDPIRFLPCMHIYHLDCIDDWLMRSFTCPSCMEPVDAALLSS
B3: TRIM74 RING domain (UniProt Q86UV6); chain SLLELEDWLQCPICLEVFKESLMLQCGHSYCKGCLVSLSYHLDTKVRCPMCWQVVDGSSSLP
B4: TRIM47 RING domain (UniProt Q96LD4); chain MDGSGPFSCPICLEPLREPVTLPCGHNFCLACLGALWPHRGASGAGGPGGAARCPLCQEPFPDGLQLR
B5: TRIM34 RING domain (UniProt Q9BYJ4); chain ILLNVQEEVTCPICLELLTEPLSLDCGHSLCRACITVSNKEAVTSMGGKSSCPVCGISYSFEHLQA
B6: RMND5B RING domain (UniProt Q96G75); chain MKCWYHSVFACPILRQQTSDSNPPIKLICGHVISRDALNKLINGGKLKCPYCPMEQNPADGK
B7: TRIM68 RING domain (UniProt Q6AZZ1); chain LVEAIVEEVACPICMTFLREPMSIDCGHSFCHSCLSGLWEIPGESQNWGYTCPLCRAPVQPRNLRP
B8: RNF10 RING domain (UniProt Q8N5U6); chain VRICSHEVPSCPICLYPPTAAKITRCGHIFCWACILHYLSLSEKTWSKCPICYSSVHKKDLKS
B9: MARCHF2 RING domain (UniProt Q9P0N8); chain RLLSTVIRALDTPSDGPFCRICHEGANGECLLSPCGCTGTLGAVHKSCLEKWLSSSNTSYCELCHTEFAVEKRPRPLTEWL
B10: CBLL1 RING domain (UniProt Q75N03); chain GEKDDTPVHFCDKCGLPIKIYGRMIPCKHVFCYDCAILHEKKGDKMCPGCSDPVQRIEQCT
B11: RNF115 RING domain (UniProt Q9Y4L5); chain TQEQVDMGLECPVCKEDYTVEEEVRQLPCNHFFHSSCIVPWLELHDTCPVCRKSLNGEDSTR
B12: RNF130 RING domain (UniProt Q86XS8); chain DKETDPDFDHCAVCIESYKQNDVVRILPCKHVFHKSCVDPWLSEHCTCPMCKLNILKALGIV
B13: MDM2 RING domain (UniProt Q00987); chain TQDKEESVESSLPLNAIEPCVICQGRPKNGCIVHGKTGHLMACFTCAKKLKKRNKPCPVCRQPIQMIVLTYFP
B14: TRIM28 RING domain (UniProt Q13263); chain GAEALELLEHCGVCRERLRPEREPRLLPCLHSACSACLGPAAPAAANSSGDGGAAGDGTVVDCPVCKQQCFSKDIVE
B1 (TRIM2 RING domain): 0
B2 (RNF11 RING domain): 15600
B3 (TRIM74 RING domain): 0
MEEMEEELKCPVCGSFYREPIILPCSHNLCQACARNILVQTPESESPQSHRAAGSGVSDY (TRIM9 RING domain (UniProt Q9C026)): 0
B4 (TRIM47 RING domain): 0
FLSKVEETFQCICCQELVFRPITTVCQHNVCKDCLDRSFRAQVFSCPACRYDLGRSYAMQ (UHRF1 RING domain (UniProt Q96T88)): 0
B5 (TRIM34 RING domain): 0
B6 (RMND5B RING domain): 0
VPADASPDSKCPICLDRFDNVSYLDRCLHKFCFRCVQEWSKNKAECPLCKQPFDSIFHSV (TOPORS RING domain (UniProt Q9NS56)): 2190
B7 (TRIM68 RING domain): 0
GSEEEEIPFRCFICRQAFQNPVVTKCRHYFCESCALEHFRATPRCYICDQPTGGIFNPA (RNF113B RING domain (UniProt Q8IZP6)): 0
B8 (RNF10 RING domain): 0
EDVLSKDAGECAICLEELQQGDTIARLPCLCIYHKGCIDEWFEVNRSCPEHPSD (ZNRF2 RING domain (UniProt Q8NHG8)): 14000
B9 (MARCHF2 RING domain): 0
B10 (CBLL1 RING domain): 0
B11 (RNF115 RING domain): 0
B12 (RNF130 RING domain): 13400
B13 (MDM2 RING domain): 0
B14 (TRIM28 RING domain): 0

Series 5 — method: protein binding microarray; molecule type: double-stranded DNA, one strand shown; medium: in vitro; tested at: not given; relative to: not given; direction: higher = stronger binding; measurement: E-score
Target: Histone acetyltransferase KAT6A, winged helix 2, GST fusion (KAT6A, Homo sapiens, UniProt Q92794, residues 85-181)
Setting: 8-mer, flanks averaged, mean of 2 arrays, mostly near background
Residues (chain): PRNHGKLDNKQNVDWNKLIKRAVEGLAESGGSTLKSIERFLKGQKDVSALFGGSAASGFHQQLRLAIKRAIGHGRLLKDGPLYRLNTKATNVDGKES
GACCACAA: 0.0164
GAGTCAAA: 0.0146
TCAGGGGA: -0.00894
GGTCCAGA: -0.0767
GAATGTAC: -0.0961
CATAACGC: -7.5e-05
CTTAGAGA: 0.0501
TAGTCCAA: -0.0906
ATTTTTCG: 0.11
AATCATGC: -0.041
TACGACCA: -0.0248
ACCCGGCT: 0.257
AGGGCACA: 0.114
CGGCGTAG: -0.0254
GCAAGCAC: -0.0982
ACAAGAAC: 0.126
ACTTATCG: -0.211
AACTAGGC: 0.013
CGTTACAG: -0.0396
ACGAGTCA: -0.0995
AAAGTATA: -0.129
CAAAATAG: -0.101
AGACTTGA: -0.0709

Repeated from above (series 2):
GACCUCG: -0.302
CCCUAGU: -0.387
GACAACC: -0.00108
AGUUAAC: -0.135
AGACCUC: -0.389
